Measurements gathered from unrelated publications.
Each numbered part is a random draw from the data of one study; scales do not carry over between parts. Positions count from the first letter of the parent shown.

Set 1 — method: protein binding microarray; molecule type: double-stranded DNA, one strand shown; medium: in vitro; concentration: not given; baseline: not given; direction: higher = stronger binding; measurement: E-score
Target: Histone acetyltransferase KAT6A, both winged helices, GST fusion (KAT6A, Homo sapiens, UniProt Q92794, residues 1-181)
Setting: 8-mer, flanks averaged, mean of 2 arrays, mostly near background
Construct (chain): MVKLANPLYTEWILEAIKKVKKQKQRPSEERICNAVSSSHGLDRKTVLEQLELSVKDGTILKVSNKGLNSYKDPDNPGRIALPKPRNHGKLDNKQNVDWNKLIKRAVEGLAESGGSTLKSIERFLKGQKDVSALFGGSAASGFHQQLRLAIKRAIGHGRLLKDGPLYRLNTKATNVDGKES
GCTCTAGA: -0.0301
ATCCGTCG: 0.26
CAGGCAGA: -0.251
AATCGCGG: 0.209
AAAGTGAG: -0.177
TCAGGACA: -0.179
TTAATTAA: -0.174
AAATCACA: -0.064
GTGGTTAA: -0.0403
CAACGCCC: 0.107
AAAAGAGT: -0.146
CTGAGAGC: -0.0489
GCGGTAAA: 0.274
GCGGGAAA: 0.268
CGGTGGCC: 0.09
ACGAGGTA: -0.00549
GTGCAGGA: -0.143
ATACATTC: -0.0803
CGTTGGGC: -0.00513
CAGCGTTC: 0.0301
CCAATCCC: -0.172
CAATCCCG: 0.196
ATCAACAA: -0.091
CTTGTATA: -0.119
ATTAGACG: 0.0999

Set 2 — method: protein-binding microarray; molecule type: double-stranded DNA, one strand shown; medium: in vitro; concentration: 250 nM; setting: 60-bp whole probe; with: salmon DNA 0.4 mg/ml; baseline: random background probes; direction: higher = stronger binding; measurement: log fluorescence; all sequences stand within: GCCTAGCAC … GTCTTGATTCGCTTGACGCTGCTG
Target: Interferon regulatory factor 5, full length, phosphomimetic (IRF5, Homo sapiens, UniProt Q13568-2, residues 1-514, K96S/S451D/S453D/S456D/S462D)
CTAGATATCGGGACTGGATTAGTGCTA: 0.791 z-score
GACGATATCGGGTATCAAGACGTGCTA: 2.03 z-score
GACGGTTTCCTACTGATGACGTGCTAG: 0.446 z-score
TTGGGTTTCCTTCTCCTTTAGTGCTAG: 0.697 z-score
CTGCTGATCGGTTGGGGTGGGTGCTAG: 0.0821 z-score
TCAAGTGTTTTTCTCCTACTGTGCTAG: 0.601 z-score
TTAGATTTCGGGTTTCTATTAGTGCTA: 5.82 z-score
AGTGCTATACCACTCTTGCTGTGCTAG: -0.0662 z-score
TTAGGACTGGACTATCGGGTAGTGCTA: 1.87 z-score
GCCGATATCAGTCTCGAGACGTGCTAG: 1.82 z-score
GACGGACTGGGTATCGGGTCGTGCTAG: 1.01 z-score
GACGGACTGGTTCTCCTGACGTGCTAG: -0.724 z-score
TTAGGTATCGGGCCTGGGTTAGTGCTA: 1.33 z-score
TTAGGTTTCCTTCTCCTTGAGTGCTAG: 1.1 z-score
TTAAATCTCAGTTTCGATTAGTGCTAG: 10.1 z-score
TTAGAACTTAGTCTCGATTAGTGCTAG: 1.14 z-score
GACGGACTACTACTGCTGACGTGCTAG: -0.179 z-score
GACGGTTTCGCACTGGGGACGTGCTAG: 2.22 z-score
TTAGGACTGGGGACCGGGTTAGTGCTA: -0.3 z-score
TTAGATCTCAGACTGCATTAGTGCTAG: -0.0897 z-score
GACGGCTCCGGTTTCGGGACGTGCTAG: 2.54 z-score
AACGGACTGGGTCTCGGGACGTGCTAG: -0.644 z-score
TCAATTGTGGCTTTTTAACTGTGCTAG: 0.271 z-score
ACCTGTATATCTTCAGCGGGGTGCTAG: -0.0339 z-score
TTAGGTTTCGGTTTTGGTTAGTGCTAG: 10.7 z-score

Set 3 — method: universal PBM; molecule type: double-stranded DNA, one strand shown; medium: in vitro; concentration: not given; direction: higher = stronger binding; measurement: E-score
Target: Sal-like protein 4, full length isoform B (SALL4, Homo sapiens, UniProt Q9UJQ4-2, residues 1-616)
Setting: 8-mer, flanks averaged, mean of replicates
Residues (chain): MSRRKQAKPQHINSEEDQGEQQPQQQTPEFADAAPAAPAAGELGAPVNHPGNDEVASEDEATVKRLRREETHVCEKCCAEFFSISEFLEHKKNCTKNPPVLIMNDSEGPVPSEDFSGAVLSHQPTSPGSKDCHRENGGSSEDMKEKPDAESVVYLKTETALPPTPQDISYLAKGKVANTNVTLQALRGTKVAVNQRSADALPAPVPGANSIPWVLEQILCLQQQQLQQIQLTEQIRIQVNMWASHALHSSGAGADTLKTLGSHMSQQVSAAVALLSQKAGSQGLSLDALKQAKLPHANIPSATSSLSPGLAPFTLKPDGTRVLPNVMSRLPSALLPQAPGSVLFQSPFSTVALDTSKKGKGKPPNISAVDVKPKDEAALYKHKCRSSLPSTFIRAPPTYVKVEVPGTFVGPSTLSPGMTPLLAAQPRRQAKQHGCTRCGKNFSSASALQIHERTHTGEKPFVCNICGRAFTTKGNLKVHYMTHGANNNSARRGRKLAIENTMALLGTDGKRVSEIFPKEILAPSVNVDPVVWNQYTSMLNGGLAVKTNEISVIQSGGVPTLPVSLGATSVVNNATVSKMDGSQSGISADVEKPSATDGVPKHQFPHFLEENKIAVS
TGTTACAA: 0.198
AGCGGCAC: -0.287
AATCACTG: 0.042
CAACTTGG: -0.0636
AGTTAGTA: 0.117
CCGCAACC: -0.258
GACAGCTA: 0.0755
ACCTCCAA: 0.0626
AAGCAATG: 0.0346
ATGGGGGC: -0.208
AATGGGGG: -0.117
CGGCACCA: -0.278
ACAACCGG: -0.159
ACGTTCGG: -0.253
AAATCGTG: 0.197
AAGTCTAT: 0.109
GGGGAAGA: -0.031
TACGTCGA: -0.00833
AGTTCACC: -0.0503
AGGATATC: 0.0633
ACGTTTGC: -0.055
CCTCTTAA: 0.0646

Set 4 — method: DHFR PCA, deep sequencing; medium: yeast; with: (+)-ABA 4.8 µM; baseline: wild-type fitted maximum; direction: higher = stronger binding; measurement: relative binding score
Target: ABI1, truncated, D143A, DHFR fusion (Arabidopsis thaliana)
Setting: methotrexate growth selection, single substitutions
Parent: PYL1, truncated, DHFR fusion (Arabidopsis thaliana); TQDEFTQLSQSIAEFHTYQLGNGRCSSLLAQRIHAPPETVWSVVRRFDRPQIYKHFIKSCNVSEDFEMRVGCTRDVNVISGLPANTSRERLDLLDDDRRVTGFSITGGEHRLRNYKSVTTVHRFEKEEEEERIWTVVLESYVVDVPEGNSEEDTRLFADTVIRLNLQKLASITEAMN
S27K: 5.79%
S9Q: 80%
D95V: -4.34%
S117I: -12.8%
D95M: 17.5%
F56Q: -0.131%
H34V: 48.9%
V70D: 9.7%
I162S: -2.12%
G81I: 3.86%
L93I: 97.8%
V70F: -6.69%
R45N: -5.69%
A84T: 13.8%

Set 5 — method: RNAcompete; molecule type: RNA; medium: in vitro; concentration: 20 nM; setting: 7-mer, probes averaged, single round; baseline: mean of 7-mers; direction: higher = stronger binding; measurement: 7-mer Z-score
Target: PABPC1L2, full length, GST fusion (mouse, UniProt A0ABA7IW68)
Target sequence (chain): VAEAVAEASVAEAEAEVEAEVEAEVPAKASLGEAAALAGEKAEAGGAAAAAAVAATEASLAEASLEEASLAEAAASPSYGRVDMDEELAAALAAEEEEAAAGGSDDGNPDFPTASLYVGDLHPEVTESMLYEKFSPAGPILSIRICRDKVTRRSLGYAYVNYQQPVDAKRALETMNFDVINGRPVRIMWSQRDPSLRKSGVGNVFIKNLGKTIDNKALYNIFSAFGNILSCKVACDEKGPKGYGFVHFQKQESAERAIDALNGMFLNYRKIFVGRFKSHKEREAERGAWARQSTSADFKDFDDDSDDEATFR
ACCGUUA: -0.215
AAAAUUG: 6.96
ACCGCUC: -0.255
CGGGUGC: -0.0192
GGUCGAC: 0.00798
AGGGCCU: -0.0283
GCUUGCC: -0.249
GUACAAG: -0.0971
AUGUUAA: 0.0605
CAGAACU: -0.0591
CAAUCUG: -0.0881
AUCCAAG: -0.0446
ACUAUCG: -0.253
UGAAUGA: -0.0409
GUUACUU: -0.208
AGCGUGU: -0.208
GUCAUAA: 0.34
GCAAUAG: -0.0409
ACAGCUC: -0.184
UAAUAAG: -0.0826
GGCUGAA: 0.329
ACGCAUC: -0.157

Set 6 — method: RNA Bind-n-Seq; molecule type: RNA; medium: in vitro; concentration: 365 nM; baseline: no-protein control; direction: higher = stronger binding; measurement: RBNS enrichment (R)
Target: RNA binding protein fox-1 homolog 2, RRM domain, GST-SBP tag (RBFOX2, Homo sapiens, UniProt O43251-10, residues 100-194)
Setting: natural RNA segment, single round, ends assumed
Residues (chain): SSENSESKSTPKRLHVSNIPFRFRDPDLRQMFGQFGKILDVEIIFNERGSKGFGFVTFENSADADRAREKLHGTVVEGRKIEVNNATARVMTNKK
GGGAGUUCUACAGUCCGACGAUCCUGACUCAUUCUGAAGGAGCCCCAUUCCUGGGAAAUAUUCCCUAGAAACUUCCAAAUCCCCUAAGCAGACCACUGAUAAAACCAUGUAGAAAAUUUGUUAUUUUGCAACCUGGAAUUCUCGGGUGCCAA: 0.562
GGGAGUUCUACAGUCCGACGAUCUAAACUGCACUGAGUCUCUUGCCAAGAAGCAAUGCUUUUUUUGUGAAGGCCACUCAGAGCAUCUUGCAGUCACAGCUGUUCCUGAGCCUGAGGCCAGAAGAUUCCCUAACUGGAAUUCUCGGGUGCCAA: 0.244
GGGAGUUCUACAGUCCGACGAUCGGGCAGCCCAAAGCUGCAGGUGCCAGGGCCCACCCCAGCCUCGCCUGUCACCCCCACUCCCGCCUCAGGGCCAGGCCCAGGCCUCACCACCUGACGCUGCAUGAGACAUUUGGAAUUCUCGGGUGCCAA: 7.5
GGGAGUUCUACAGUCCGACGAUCCCUGUGGGAUCGUUGCCUGGUUUGUCUUCUCUGUGUCCUGGAGCAAAGCCAGUUCCUAAAACUAAAACUCCAUUCUAGUCUUGGGAAGAAAAGUUUCUACUCAGAACUGGUGGAAUUCUCGGGUGCCAA: 0.218
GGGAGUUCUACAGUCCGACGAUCAGCCAUGCUGUUGUGAGAUUUUUAGCUGCUGGAAGGCUAGGUAAUCACUGGGUAGUAUCACACAGGUGUGUCUGGGUUGAGAUGUUACUCCUCUGAAUGAAUAGGAGGAUUGGAAUUCUCGGGUGCCAA: 2.96
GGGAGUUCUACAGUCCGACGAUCUGAUGUCGCAUUAUAAAGACAUGCAUAAUUGAUGGUUUCUAGAUUAUCUAGUCCAAACAAUAGAGUUUAUUUUUUCUUCAUCUGAACCAACAUGCUACAGUAGCUAAGAAUGGAAUUCUCGGGUGCCAA: 0.426
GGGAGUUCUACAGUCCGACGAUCAUUUAUUAUUUUGCUUUUCUUGCUUAAGUAUAAUUGAAAAUAUUUGCAGGAACGCACAAUUCAUUUUAUCAAGUUGAAUGAAUAGGACCAUUCUCUCCUCAUCAGAUUUCUGGAAUUCUCGGGUGCCAA: 0.421
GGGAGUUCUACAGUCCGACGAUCAGGUUGCGUUUUGGGGUUUGCCUUUUUUUGUUGUCGCUUAAAUGCAAUUUGGUUGUAAAGAUUUGAUUCCUUUGUGUUCAUCUGUUCCGCUUCUCAGCGGUCCAUCUCAGUGGAAUUCUCGGGUGCCAA: 0.325
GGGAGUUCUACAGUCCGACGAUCAAUUCUGAGGAACCUUGUGCCCAGUUGUUACAAAGUUUAAGCUUUGAACCUAACCUGCAUCCCAUUUCCAGCCUCUUUUCAAGCUGAGAAAAAAACAAAAAACACGUUUGUGGAAUUCUCGGGUGCCAA: 0.528
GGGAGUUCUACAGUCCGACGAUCGGUCUUAGAUACCAGCUACCUACGAGAGAGAGAGAAAUUGGUUUGUAAUAUCAGUGUAAGUAAAAUCCUGAUUCCAUAAACCUGGUUGUAUUUAAAACAAAAAACAAAACUGGAAUUCUCGGGUGCCAA: 0.369
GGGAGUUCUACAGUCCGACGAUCCGUUGUAAGUAACUGAGGUCCAUGUGGAAAAGAUGGCUUGUAUUUUUGAAAUGAUCACAACACACUGUGCAGAAGUGGACAGAUGUUCCAUGGCGUUUGGUUCUCCUUCCUGGAAUUCUCGGGUGCCAA: 0.575
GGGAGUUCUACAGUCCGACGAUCAAUUCUGAAUUUGCAAAGUACUGUAAGAAUAAUUUAUAGUAAUGAGUUUAAAAAUCAACUUUUUAUUCCUUCUCACCAGCUGCAAAGUGUUUUGUACCAGUGAAUUUUUGUGGAAUUCUCGGGUGCCAA: 0.57

For quick reference, copied from above (set 1):
CAACGCCC: 0.107
AAAAGAGT: -0.146
CTGAGAGC: -0.0489
GCGGTAAA: 0.274
GCGGGAAA: 0.268
CGGTGGCC: 0.09
ACGAGGTA: -0.00549
GTGCAGGA: -0.143
ATACATTC: -0.0803
CGTTGGGC: -0.00513
CAGCGTTC: 0.0301
CCAATCCC: -0.172
